Measured values collected from several papers.
Parts stem from different laboratories: compare values within a part only. Substitutions count along the parent as printed.

Sample 1
Target: Ras GTPase-activating protein-binding protein 1, full length (G3BP1, Homo sapiens, UniProt Q13283)
Chain of UniProt Q13283 (whole entry, looked up): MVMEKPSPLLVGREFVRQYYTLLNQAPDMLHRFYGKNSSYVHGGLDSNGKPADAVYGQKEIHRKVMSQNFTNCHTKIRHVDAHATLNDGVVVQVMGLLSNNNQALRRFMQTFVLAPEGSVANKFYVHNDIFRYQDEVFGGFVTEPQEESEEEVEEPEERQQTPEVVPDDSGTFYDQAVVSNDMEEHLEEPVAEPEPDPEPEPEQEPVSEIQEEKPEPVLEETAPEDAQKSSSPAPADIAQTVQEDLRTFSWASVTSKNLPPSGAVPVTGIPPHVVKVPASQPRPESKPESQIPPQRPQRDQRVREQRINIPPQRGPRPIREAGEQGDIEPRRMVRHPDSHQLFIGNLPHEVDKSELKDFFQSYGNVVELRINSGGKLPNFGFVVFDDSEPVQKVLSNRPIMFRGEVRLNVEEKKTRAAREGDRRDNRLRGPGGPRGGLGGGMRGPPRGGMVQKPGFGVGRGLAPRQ
Method: RNA Bind-n-Seq
Form: RNA
Matrix: in vitro
Concentration: 200 nM
Notes: whole 134-nt RNA, ends assumed
With: 150 mM KCl
Baseline: input library
Direction: higher = stronger binding
Shared flanks, not repeated: GGGAGUUCUACAGUCCGACGAUC … UGGAAUUCUCGGGUGUCAAGG
Oligonucleotide	log2 enrichment
CACAGACAACACCCACCCACACAGACACAGAGGGAAGGGGUUGGGAUGGGGACAGGGUGCACAGCAGGGCGGGGUAGGACCCCAGCCCCU	2.03
UCAAGUCCUGUGCUACACAUCGUAUGUACCGAAUCGGAAAGGGGAAAGGAAAGGGAAAGUAUUAUGUUACGCCGUUCGGAUCUGCACUUC	-1.14
CACAGACAACACGCACCCACACAGACACAGAGGGAAGGGGUUGGGAUGGGGACAGGGUGCACAGCAGGGCGGGGUAGGACAAAAGCCCCU	1.67
UUCGACGAAACAAUUCGAAAGCCCAUCAGUUUGGGUUGUGGCCAUACUGUCUGCAAGAUGUGCCUGAAUAAACUCCACCGCAAGGCUUGC	0.143
UGGGAGGUGGAUUUUGUUUAUUUUUUUAGCUCAUUUCCAGGGGUGGGAAUUUUUUUUUAAUCUGUGUCAUGAAUAAAGUUGUUUUUGAAA	0.499
UGGCCCUGGUGGCAUGCGGGGAGGAAGAGGGGGCCUCAUGGAUCGUGGUGGUCCCGGUGGAAUGUUCAGAGGUGGCCGUGGUGGAGACAG	0.707
GGCCCGACCUGAUCGACUUUGAUAAGCUGAAGGACUCCAAUGCCCGGCACAACCUGGAGCACGCAUUCAAUGUGGCUGAGCGCCAGCUGG	-0.071
ACCAUGCAGGUGCGCAUCUUUGGGAAGUGGGGCAAGGGGGGGAUAGGGAGGGGGGUAACACUUUGGGAACAGGUGGUCCCAGGUCGUUUC	0.985
AGUCCUGUGCUACACAUCGUAUGUACCGAAUCGGGGAAAGGGGUGGGGAAAAAGGGGAAAGUAUUAUGUUACGCCGUUCGGAUCUGCACU	0.347
GUCCUGUGCUACACAUCGUAUGUACCGAAUCGGGAAAAAGGAAAAAGGGAAAAAGGGGAAAGUAUUAUGUUACGCCGUUCGGAUCUGCAC	-0.533
GCAGGAAGUAAAAACAAAUGGAAAUGCUUCGGAUAAUGGCAGGGGUGGGGGUUGCUAAGGAAAGGGUGGGAUGGGAGUGGGUAAAGAGUU	0.793
UCAAGUCCUGUGCUACACAUCGUAUGUACCGAAUCGGGAGGGAAAAAGGGAGGGAAAGUAUUAUGUUACGCCGUUCGGAUCUGCACUUCC	1.13
AAGUCCUGUGCUACACAUCGUAUGUACCGAAUCGGGGAAAAGGAAAAGGGAAAAGGAAAGUAUUAUGUUACGCCGUUCGGAUCUGCACUU	-0.844

Sample 2
Target: CCNA2, cyclin fold, Cln2 fusion (human)
Method: yeast growth competition, sequencing
Matrix: yeast
Notes: strong parent motif
Baseline: not given
Direction: higher = stronger binding
Parent: RBL1 docking peptide (human); GSAKRRLFGEDPP; partner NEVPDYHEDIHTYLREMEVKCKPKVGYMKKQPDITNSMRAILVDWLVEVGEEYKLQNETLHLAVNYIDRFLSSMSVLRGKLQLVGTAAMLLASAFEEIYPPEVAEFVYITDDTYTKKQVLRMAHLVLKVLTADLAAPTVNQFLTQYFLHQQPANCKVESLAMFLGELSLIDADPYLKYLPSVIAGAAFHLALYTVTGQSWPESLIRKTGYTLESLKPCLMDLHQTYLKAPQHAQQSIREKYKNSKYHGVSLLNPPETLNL
Variant	normalised enrichment score
D11L	5.93
S2A	5.34
R6D	0.345
D11F	5.56
R6H	2.89
F8I	2.19
L7Q	0.625
F8S	-0.686
G9Y	5.91

Sample 3
Target: RNA binding protein fox-1 homolog 2, RRM domain, GST-SBP tag (RBFOX2, Homo sapiens, UniProt O43251-10, residues 100-194)
Method: RNA Bind-n-Seq
Form: RNA
Matrix: in vitro
Concentration: 365 nM
Notes: natural RNA segment, single round, ends assumed
Baseline: no-protein control
Direction: higher = stronger binding
Shared flanks, not repeated: GGGAGUUCUACAGUCCGACGAUC … UGGAAUUCUCGGGUGCCAA
Residues (chain): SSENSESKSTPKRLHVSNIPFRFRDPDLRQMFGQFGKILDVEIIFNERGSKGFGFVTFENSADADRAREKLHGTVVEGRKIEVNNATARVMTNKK
Oligonucleotide	RBNS enrichment (R)
CAUAAAGCACACACUUAGUGCCCUGGAGCAAGUCCAUGACUCCACAUGACCUUGGAAGCUUUCUUCUCUCCAGAACAUUUGGAAAGGGGUAGAAGACCAUAUGGCUUACU	0.278
AGAAGUGCUGGGAAGAAAAAGCUAUGUGGUUUCUACCAUUUUAGCAGGAUAAAGAGGAUAACUCCUUCCAUUAGCAAAUUUUACAGUUGUUAACAGUACUCUGCCAUAUU	0.234
CAGGCUUUUGGAGAAAAAGGACCCAAGUGACACUGAUGUUUACAAAGUACCUAUAAAACCCUGUACACACCUAGUUCAUAUUCCUCAUAAUUUAUCAACAAACACAAAAA	0.369
CAGAAAAGAAUGAUGUCCCUUUCCUUGCCAUGUCCUUGAGCCUGUCAGUAAUGAACUGGCUGCAAGGGGACAGCACCUCUCAGCCUGCACAGCAGCUUGUCAGAGUGAGA	0.574
CAGGCUCUCCUGAGCAGGACUGCUAAAGAGCUUGCCUCCUCAAAGCCUGGUCUCUGAGGUGCUUUCUAACAGCUGGAGGCACUUGUUCUGGGCUUUCCUUUGCCCUCAGU	0.271
GCAGUGCGGCUUCAGGACGAAGCUCAGCCAGGGAGAGGGCGAUUAUAAUUGGGUAGUUUUGUUAAUAUUUUUUUAUCUUGUCCUUGAUAUUCCAAAAGUUACAGGAUAGA	0.83
AAAACCCAGGGUAUCUUCCCUCAGCAGCCUUCCAGCCGAGGACCAGAAAAGCUAUGAUUCCAUUAGAAGACUUCUGGAGGUCCCCAGAUCUUUGGAGUGUGGGAAUGGAA	0.322
GGGAAGUGACAUAAAGUGAGGUCGCCCUUGCUAAGUCCUGCUGUCCUCUCUAGAGCCUUCCUCAGAGCUGUGCAAGCAUGGGAGCCUCUCCUUGCUCCUCCCAGUCCUGC	0.656
GUGUGAUGUCAUGUUUGGUCAUUUUUCUUUUGUCCAGGGAAUGGAUAAUGACAUUCUGUCACCCACCCUUUUGUACAUUUUUCACUUUUUGUUUGUUUCAUCUUUUUCAG	0.426
AUAGUUCUAUCAGGAAAACAAAUCACUGUAUUUAUCUCCGCAGGCUAUUUGUUCAGAGAGGCCUUUUGUUUAAAUAUAAAUGUUUAAAUAUAAAUGUUUGUCUGGAUUGG	0.483
UGUUUCAUGACCGCUUGUUUUUCUCCUUUUGGUGUAAUGUUUUACAAAUCCUUUGGCCUGAGAACUAAUAUGUUAAUUGCCUUAAAUAAAUUAAUAGAAAUCUAGUCCGU	0.452
CAAAAUUACCGAAUGCCAUUUUUAAAAGUAUGCUAUAAACUAUGCUACUCUCAUACAGGGGACCCGUAUUUUAAAAUCUCCAGACUUGCUUACAUCUAGAUUAUCCAGCA	10.2

Other studies, line by line
Substance	target	assay	test system	setting	scale	measurement	result
PhoQ, residues 284 288 289 292 302 303 ASASEQ	PhoP, residues 12 14 15 18 19 SGWQI (Escherichia coli, UniProt P23836)	Sort-seq, refers to: YFP reporter	E. coli	PhoQ-PhoP variant library, with: 10 µM Mg2+	baseline: high Mg2+ state, higher = stronger signaling	fold induction	1.04

Some of these lines once more (sample 2):
Variant	normalised enrichment score
R6H	2.89
L7Q	0.625
S2A	5.34
R6D	0.345
